Published values pooled from the literature.
Parts stem from different laboratories: compare values within a part only.

Sample 1 — method: protein binding microarray; molecule type: double-stranded DNA, one strand shown; medium: in vitro; concentration: not given; baseline: not given; direction: higher = stronger binding
Target: Histone acetyltransferase KAT6A, winged helix 2, GST fusion (KAT6A, Homo sapiens, UniProt Q92794, residues 85-181)
Setting: 8-mer, flanks averaged, mean of 2 arrays, mostly near background
Construct (chain): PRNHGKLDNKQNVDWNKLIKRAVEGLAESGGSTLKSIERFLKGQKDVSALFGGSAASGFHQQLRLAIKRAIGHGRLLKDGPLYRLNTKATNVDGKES
`GCAGTGAC` gave an E-score of 0.0992.
The E-score of `CGGTGGGA` is reported as 0.00507.
For `AAGCTAGT`, the E-score was -0.0195.
`ATCGAGAG` has an E-score of 0.0661.
`GGAAGGTA` gave an E-score of -0.0555.
The E-score of `CCCCTCAC` is reported as 0.125.
With `ACTCTACC` the E-score was -0.12.
The E-score of `TAGTCCGA` is reported as -0.161.
For `ATGCCACA`, the E-score was -0.0186.

Sample 2 — method: RNA Bind-n-Seq; molecule type: RNA; medium: in vitro; concentration: 200 nM; setting: whole 134-nt RNA, ends assumed; added: 150 mM KCl; baseline: input library; direction: higher = stronger binding
Target: Ras GTPase-activating protein-binding protein 1, full length (G3BP1, Homo sapiens, UniProt Q13283)
Sequence of UniProt Q13283 (whole entry, looked up): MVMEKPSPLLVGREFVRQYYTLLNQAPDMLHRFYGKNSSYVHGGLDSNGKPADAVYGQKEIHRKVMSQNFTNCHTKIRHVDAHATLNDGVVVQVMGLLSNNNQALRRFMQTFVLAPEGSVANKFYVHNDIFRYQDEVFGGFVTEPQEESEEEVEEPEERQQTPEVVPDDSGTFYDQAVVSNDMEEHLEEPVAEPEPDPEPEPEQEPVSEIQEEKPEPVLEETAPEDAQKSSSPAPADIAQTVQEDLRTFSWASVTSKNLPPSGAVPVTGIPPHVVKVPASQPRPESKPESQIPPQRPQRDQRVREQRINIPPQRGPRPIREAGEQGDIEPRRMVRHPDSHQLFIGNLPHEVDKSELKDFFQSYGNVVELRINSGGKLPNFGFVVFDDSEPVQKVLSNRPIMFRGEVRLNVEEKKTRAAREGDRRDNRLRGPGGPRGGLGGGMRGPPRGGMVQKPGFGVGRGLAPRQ
`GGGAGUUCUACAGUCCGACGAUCAGUCCUGUGCUACACAUCGUAUGUACCGAAUCGGGUUUUUUUGGGUUUGGGUUUGGGAAAGUAUUAUGUUACGCCGUUCGGAUCUGCACUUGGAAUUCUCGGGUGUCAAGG` gave a log2 enrichment of -0.169.
`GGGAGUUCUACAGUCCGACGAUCUGUGCUACACAUCGUAUGUACCGAAUCGGGUUUUUUUGGGUUUUUUUGGGGUUUUUUUGGGGAAAGUAUUAUGUUACGCCGUUCGGAUCUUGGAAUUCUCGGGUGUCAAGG` has a log2 enrichment of -0.796.
The log2 enrichment of `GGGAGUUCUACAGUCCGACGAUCGCAGGAAGUAAAAACAAAUGGAAAUGCUUUGGAUAGUGGCAGGGGUGGGGGUUGCUAAGGAAAGGGUGGGAUGGGAGUGGGUAAAGAGUUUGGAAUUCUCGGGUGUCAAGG` is reported as 1.24.
The log2 enrichment of `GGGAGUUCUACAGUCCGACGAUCUUCCAGGCUCAAGCACGGACAUCAGUGAGGACUGGGAGAAAGACUUUGACUUGGACAUGACUGAAGAGGAGGUGCAGAUGGCACUUUCCAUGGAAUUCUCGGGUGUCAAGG` is reported as 0.018.
With `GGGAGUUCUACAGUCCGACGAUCACCAUGCAGGUGGGCAUCUUUGGGAAGUGGGGCAAGGGGGGGAUAGAGAGGGGGGUAACACUUUGGGAACAGGUGGUCCCAGGUCGUUUCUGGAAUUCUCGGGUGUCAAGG` the log2 enrichment was 0.876.

Sample 3 — method: aptamer microarray, sandwich; molecule type: DNA with 2'F-ANA; medium: in vitro; concentration: 200 nM; added: Cy3 exosite-II aptamer, 400 nM; direction: higher = stronger binding; strand: GGTTGGTGTGGTTGG
Target: Prothrombin, mature alpha-thrombin (F2, Homo sapiens, UniProt P00734)
Setting: whole 15-mer aptamer, many near background
`2'F-ANA at 6 9 10 11 12` — result for “mean fluorescence intensity”: 170 a.u.
For `2'F-ANA at 1 4 8 11 12 14 15`, “mean fluorescence intensity” read 66.9 a.u.
`2'F-ANA at 1 2 4 6 13 14`: “mean fluorescence intensity” 113 a.u.
Under “mean fluorescence intensity”, `2'F-ANA at 1 6 8 13 14` is recorded as 87.5 a.u.
`2'F-ANA at 1 2 4 8 11 12 14 15`: “mean fluorescence intensity” 65 a.u.
`2'F-ANA at 2 3 9 10 12`: “mean fluorescence intensity” 485 a.u.
For `2'F-ANA at 2 4 5 9 10 11 12 13`, “mean fluorescence intensity” read 57.2 a.u.
Under “mean fluorescence intensity”, `2'F-ANA at 2 3 4 5 6 7 8 9 12 14 15` is recorded as 61.9 a.u.
`2'F-ANA at 1 2 9 10 11 13 14` — result for “mean fluorescence intensity”: 45 a.u.

Mixed results
For `PhoQ, residues 284 288 289 292 302 303 MLMVEA`, the fold induction was 8.75 (PhoP, residues 12 14 15 18 19 QWHVF (Escherichia coli, UniProt P23836); Sort-seq, refers to: YFP reporter; E. coli; PhoQ-PhoP variant library, added: 10 µM Mg2+; baseline: high Mg2+ state, higher = stronger signaling).

Some of these lines once more (sample 1):
`ATCGAGAG` has an E-score of 0.0661.
`GGAAGGTA` gave an E-score of -0.0555.
